Measured values gathered from unrelated publications.

| SMILES | assay | system | conditions | how to read | measurement | value |
| --- | --- | --- | --- | --- | --- | --- |
| COc1c(C)c(C)c2c(c1C)CCC(C)(C(=O)NN=C1C(=O)Nc3ccc(Br)cc31)O2 (centres unmarked) | seizure protection | male CF-1 mice | intraperitoneal, 4 h, together with: maximal electroshock |  | minimal effective dose | > 300 mg/kg |
| c1ccc2cc3c(ccc4ccccc43)cc2c1 | adrenal haemorrhage prevention | rat | oral, together with: 7,12-DMBA 5 mg i.v. |  | minimal protective dose | 1 mg |
| c1cc(-c2cnn3cc(-c4ccc(OCCN5CCCCC5)cc4)cnc23)ccn1 |  | zebrafish embryos | from 3 hpf |  | EC100 dorsalization | 2 µM |
| CC[C@H](C)[C@@H]1NC(=O)[C@H](CCCNC(=N)N)NC(=O)[C@H](CC(=O)O)NC(=O)[C@H](CC(C)C)NC(=O)[C@H](CCCCN)NC(=O)[C@H](CC(C)C)NC(=O)CNC(=O)[C@H](Cc2ccccc2)NC(=O)[C@@H](NC(=O)CNC(=O)[C@H](CCCCN)NC(=O)[C@H](CO)NC(=O)[C@H](CC(C)C)NC(=O)CNC(=O)[C@H](CCCCN)NC(=O)[C@H](CCCCN)NC(=O)[C@H](CC(N)=O)NC(=O)[C@H](C)NC(=O)CNC(=O)[C@H](CCCCN)NC(=O)[C@H](Cc2ccc(O)cc2)NC(=O)[C@H](CCCCN)NC(=O)[C@H](CCCNC(=N)N)NC(=O)[C@H](C)NC(=O)[C@H](CC(N)=O)NC(=O)[C@@H]2CCCN2C(=O)[C@H](Cc2c[nH]cn2)NC(=O)[C@H](CCC(=O)O)NC(=O)[C@H](CCC(N)=O)NC(=O)CNC(=O)[C@@H]2CCCN2)CSSC[C@@H](C(=O)O)NC(=O)CNC(=O)[C@H](CC(C)C)NC(=O)CNC(=O)[C@H](CO)NC(=O)[C@H](CCSC)NC(=O)[C@H](CO)NC(=O)CNC1=O | annualized growth velocity change | human patients with achondroplasia | day 183, sigmoid Emax vs AUC(0-t) | baseline: baseline | Emax | 2.41 cm/year |
| NCCCC[C@@H]1NC(=O)[C@@H](Cc2c[nH]c3ccccc23)NC(=O)[C@H](c2ccccc2)NC(=O)[C@@H]2C[C@@H](OC(=O)NCCN)CN2C(=O)[C@H](Cc2ccccc2)NC(=O)[C@H](Cc2ccc(OCc3ccccc3)cc2)NC1=O | GHRH-stimulated GH secretion | healthy human volunteers | subcutaneous, 200 µg, together with: GHRH 1 µg/kg | baseline: pre-dose baseline | GH AUC(0-2h) change | -79.1% |
| CN(O)N=Nc1ccc(S(=O)(=O)Nc2nccs2)cc1 | paw oedema | rat, carrageenan oedema | oral, 100 mg/kg, 4 h after carrageenan | baseline: vehicle | inhibition | 60.6% |
| COc1c(C)c(C)c2c(c1C)CCC(C)(C(=O)NN=C1C(=O)Nc3ccccc31)O2 (centres unmarked) | seizure protection | male CF-1 mice | intraperitoneal, 4 h, together with: pentylenetetrazole 60 mg/kg subcutaneous |  | minimal effective dose | 100 mg/kg |
| Cc1cc(NS(=O)(=O)c2ccc(N=NN(O)c3ccccc3)cc2)no1 | paw oedema | rat, carrageenan oedema | oral, 100 mg/kg, 4 h after carrageenan | baseline: vehicle | inhibition | 82.6% |
| CC(=O)O[C@H]1C(=O)[C@@]2(C)[C@H]([C@H](OC(=O)c3ccccc3)[C@]3(O)C[C@H](OC(=O)[C@H](O)[C@@H](NC(=O)c4ccccc4)c4ccccc4)C(C)=C1C3(C)C)[C@]1(OC(C)=O)CO[C@@H]1C[C@@H]2O |  | sample A patient-derived NSCLC xenograft, Mus musculus | intravenous, 10 mg/kg every 4 days, 96 h | baseline: vehicle | tumour growth inhibition | 60% |
| Cc1cccc(N(O)N=Nc2ccc(S(=O)(=O)Nc3nccs3)cc2)c1 | paw oedema | rat, carrageenan oedema | oral, 100 mg/kg, 4 h after carrageenan | baseline: vehicle | inhibition | 74.3% |
| Cc1c(C)c2c(c(C)c1OCc1ccccc1)CCC(C)(C(=O)NN=C1C(=O)Nc3ccc(Cl)cc31)O2 (centres unmarked) | seizure protection | male CF-1 mice | intraperitoneal, 0.5 h, together with: pentylenetetrazole 60 mg/kg subcutaneous |  | minimal effective dose | 100 mg/kg |

For quick reference, copied from above:
| SMILES | assay | system | conditions | how to read | measurement | value |
| --- | --- | --- | --- | --- | --- | --- |
| COc1c(C)c(C)c2c(c1C)CCC(C)(C(=O)NN=C1C(=O)Nc3ccc(Br)cc31)O2 (centres unmarked) | seizure protection | male CF-1 mice | intraperitoneal, 4 h, together with: maximal electroshock |  | minimal effective dose | > 300 mg/kg |
